Published values gathered from unrelated publications.
Numbered parts are unrelated; each lists some results of a single study.

Block 1 — read-out: enzyme activity; mode: inhibitor; concentration: 20 µM
Target: Replicase polyprotein 1ab, polymerase (rep, Severe acute respiratory syndrome coronavirus 2, UniProt P0DTD1)
`C=CC(=O)Nc1cc2c(Nc3ccc(F)c(Cl)c3)ncnc2cc1C#CC(C)(C)N1CCN(C)CC1` gave an inhibition of -2.69%.
`O=C1c2ccccc2-c2c(NCCc3ccccc3)c(=O)[nH]c3cccc1c23` has an inhibition of -26%.
`CCN(CC)CCCCC(NC(=O)c1ccc([N+](=O)[O-])cc1)c1ccccc1` (stereo not shown) has an inhibition of 2.61%.
The inhibition of `O=C1c2cccc3c2[C@H](CCC3)CN1[C@@H]1CN2CCC1CC2` is reported as -1.52%.
For `Oc1ccc(CC2NCCc3cc(O)c(O)cc32)cc1` (stereo not shown), the inhibition was -1.41%.
With `Nc1nccc2c1ncn2[C@@H]1C=C(CO)[C@@H](O)[C@H]1O` the inhibition was -1.7%.
`O=C(O)Cc1cccc2c(=O)cc(-c3ccccc3)oc12` has an inhibition of 2.52%.
For `CC(C)c1cc(-c2n[nH]c(=O)n2-c2ccc3c(ccn3C)c2)c(O)cc1O`, the inhibition was -7.17%.
The inhibition of `O=C(O)Cn1c2c(c3cc(F)ccc31)CN(C(=O)c1cccc3ccccc13)CC2` is reported as -1.67%.
`Cc1onc(-c2ccccc2)c1C(=O)N[C@@H]1C(=O)N2[C@@H]1SC(C)(C)[C@@H]2C(=O)O` has an inhibition of 16%.
With `CNC(=O)CN1CCC(Oc2cc3c(Nc4cccc(Cl)c4F)ncnc3cc2OC)CC1` the inhibition was -1.74%.
The inhibition of `CC(C)C[C@H](NC(=O)[C@@H](COC(C)(C)C)NC(=O)[C@H](Cc1ccc(O)cc1)NC(=O)[C@H](CO)NC(=O)[C@H](Cc1c[nH]c2ccccc12)NC(=O)[C@H](Cc1cnc[nH]1)NC(=O)[C@@H]1CCC(=O)N1)C(=O)N[C@@H](CCCNC(=N)N)C(=O)N1CCC[C@H]1C(=O)NNC(N)=O` is reported as 1.82%.
`CC(=O)/N=c1/sc(S(N)(=O)=O)nn1C` has an inhibition of -0.69%.
For `CC[C@@H](C(=O)[C@@H](C)[C@@H](O)[C@H](C)[C@@H]1O[C@@H]([C@@H](CC)C(=O)O)CC[C@@H]1C)[C@H]1O[C@]2(C=C[C@@H](O)[C@]3(CC[C@@](C)([C@H]4CC[C@](O)(CC)[C@H](C)O4)O3)O2)[C@H](C)C[C@@H]1C`, the inhibition was -6.97%.
`Nc1ccn([C@@H]2O[C@H](CO)[C@@H](O)C2(F)F)c(=O)n1` gave an inhibition of -3.48%.
The inhibition of `O=C(Nc1cccc(Nc2ncc(Br)c(NCCc3cnc[nH]3)n2)c1)N1CCCC1` is reported as -6.54%.
With `CCOCCn1c(C2CCN(CCc3ccc(C(C)(C)C(=O)O)cc3)CC2)nc2ccccc21` the inhibition was -10.8%.
The inhibition of `CN(C[C@@H]1COCCO1)S(=O)(=O)Nc1ccc2ccc3ncc(-c4cnn(C)c4)cc3c(=O)c2c1` is reported as 44.6%.
With `CN(C)C(=O)CCSC(SCCC(=O)O)c1cccc(/C=C/c2ccc3ccc(Cl)cc3n2)c1` (stereo not shown) the inhibition was -0.09%.
For `CC(=O)Nc1ccc(CC(=O)O)cc1`, the inhibition was 22.1%.
For `N#Cc1cc(NC(=O)C(=O)O)c(Cl)c(NC(=O)C(=O)O)c1`, the inhibition was 3.98%.
For `CCN(CC)CCCCC1CCN(CC(=O)N2c3ccccc3C(=O)Nc3cccnc32)CC1`, the inhibition was -2.69%.
For `Cc1ccccc1N(C)C(=O)c1ccc([S+]([O-])c2nccs2)c([N+](=O)[O-])c1` (stereo not shown), the inhibition was -0.21%.
`O=c1[nH]nc(Sc2ncc([N+](=O)[O-])s2)n1-c1ccc2c(c1)OCCO2` has an inhibition of -14.3%.
`CNC(=S)C1(c2ccccn2)CCCS1` (stereo not shown) has an inhibition of 4.02%.

Block 2 — method: protein binding microarray; form: double-stranded DNA, one strand shown; matrix: in vitro; concentration: not given; baseline: not given; reading: higher = stronger binding
Target: Histone acetyltransferase KAT6A, winged helix 2, GST fusion (KAT6A, Homo sapiens, UniProt Q92794, residues 85-181)
Notes: 8-mer, flanks averaged, mean of 2 arrays, mostly near background
Residues (chain): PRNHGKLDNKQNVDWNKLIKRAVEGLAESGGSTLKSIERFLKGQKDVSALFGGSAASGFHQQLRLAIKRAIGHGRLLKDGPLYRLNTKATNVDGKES
`AATAATGC` has an E-score of 0.0685.
`AATTGGAA` has an E-score of 0.144.
`CACCGCAC` gave an E-score of 0.11.
For `AATTCTCG`, the E-score was -0.00722.
For `GACCAGCA`, the E-score was 0.0407.
`ACTACGAA` has an E-score of -0.0178.
The E-score of `ACCTCATC` is reported as 0.0104.
`CGAAGATA` gave an E-score of 0.127.

Block 3 — method: RNA Bind-n-Seq; form: RNA; matrix: in vitro; concentration: 365 nM; baseline: no-protein control; reading: higher = stronger binding
Target: RNA binding protein fox-1 homolog 2, RRM domain, GST-SBP tag (RBFOX2, Homo sapiens, UniProt O43251-10, residues 100-194)
Notes: natural RNA segment, single round, ends assumed
`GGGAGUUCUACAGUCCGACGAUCAGUAUGUGAAGAAAUAUGAUGGUGUAGAAAUGUCCUGGGUUUAAGAAGUGAUUUCUCAAAAGUAAAGAUACUAUCCCAGAGGGUCGUGGGCAGAAAUGAAGGGAUUUCAUUGGAAUUCUCGGGUGCCAA`: “RBNS enrichment (R)” 3.66.
`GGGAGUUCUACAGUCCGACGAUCCUAUCUUGGUUGUAUUUGCUGCCAUCUGUCUUAUUCCCACAUUUCCCUACAGCCCAUAGUAGUGUCAGCGUGGACUGUAGGGCCCCAUUGGGUAUUAGGAUUUAGGCUCCUGGAAUUCUCGGGUGCCAA`: “RBNS enrichment (R)” 0.43.
`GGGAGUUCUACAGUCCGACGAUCCUGUACAAACUUUGGGCCCGAUUCAUAAGAAAGAAGUUUGCUAUUAACACGGGAUUUUAAAAAAUAUGCUCUCUCUCUCUCUGCUCUCUCUCUCUCUCUAAAUUUGGAUAUGGAAUUCUCGGGUGCCAA` — result for “RBNS enrichment (R)”: 0.855.
`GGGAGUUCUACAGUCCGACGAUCUCCCACACCAUCUGAGUGACUUGAAUUCCAGGGUUGGGCUCUGUCUUGAGUCUCCACAUCAGUCUCACACCAGGGAACUUGGGGGUCCCCCGUUAAACUACAGCUGACCCUGGAAUUCUCGGGUGCCAA` — result for “RBNS enrichment (R)”: 0.364.
`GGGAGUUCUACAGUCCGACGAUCUUAUAUACUAUGAGAUAGUGAGGGAGUAUAGAAGUGAAAACCAGGUGUCUGUUCUUGCCCUUAAUAUUAUAAGUGGCAUAAAUGUCACACCAUUGCAAAGAACGGGAGAAUGGAAUUCUCGGGUGCCAA`: “RBNS enrichment (R)” 0.374.
`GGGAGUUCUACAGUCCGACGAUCUGCCCCUCACCCCCUGAAAAGCUGACUCACUGUGAGUGACCUUGGGCAAGUCCCCAAACCUCCUUGUGCCUCAGUUUCCCCAUCUGGAAAAAAUGGGGCCACCUCUUGCCUGGAAUUCUCGGGUGCCAA` — result for “RBNS enrichment (R)”: 0.388.
For `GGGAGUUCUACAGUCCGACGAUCAAGCAUUUGAUAGAAAUCUGUCUUGCAGCACUGUCUUCACAUUUAAUGUUGCUUUCUCUUCUAGUCUCGGGUAUGUUUAAAUGAUUCCCUUUUCUCACUCUAGCGCCAAUUGGAAUUCUCGGGUGCCAA`, “RBNS enrichment (R)” read 0.434.
`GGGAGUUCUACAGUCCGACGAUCCUCCUCCAGUGUGGGCUUGACCAGGCUUGGCCUUGGGCUAUUUGGACUCAGGUGGGCCCUCUGAACUUGCCUUAAACACUCACCUUCUAGUCUUGGCCAGCCAACUCUGGUGGAAUUCUCGGGUGCCAA`: “RBNS enrichment (R)” 0.629.

Block 4 — method: protein-binding microarray; form: double-stranded DNA, one strand shown; matrix: in vitro; concentration: 2540 nM top; notes: 60-bp whole probe; added: salmon DNA 0.4 mg/ml; baseline: random background probes; reading: higher = stronger binding; constant ends, left off below: GCCTAGCACT … GTCTTGATTCGCTTGACGCTGCTG
Target: Interferon regulatory factor 3, full length, phosphomimetic (IRF3, Homo sapiens, UniProt Q14653, residues 1-427, S386D/S396D/S398D/S402D/T404D/S405D)
Residues (chain): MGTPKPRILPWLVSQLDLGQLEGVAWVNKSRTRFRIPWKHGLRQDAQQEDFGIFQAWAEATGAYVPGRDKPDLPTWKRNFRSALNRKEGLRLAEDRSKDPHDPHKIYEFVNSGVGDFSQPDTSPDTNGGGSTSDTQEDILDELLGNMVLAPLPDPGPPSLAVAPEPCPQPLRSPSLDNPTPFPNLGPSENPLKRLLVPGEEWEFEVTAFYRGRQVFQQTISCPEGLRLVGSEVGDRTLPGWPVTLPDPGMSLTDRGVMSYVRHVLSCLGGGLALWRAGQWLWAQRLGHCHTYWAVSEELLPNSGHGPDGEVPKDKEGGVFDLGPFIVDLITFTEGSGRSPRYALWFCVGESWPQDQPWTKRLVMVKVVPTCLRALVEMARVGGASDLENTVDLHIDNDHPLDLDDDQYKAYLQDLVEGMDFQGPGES
Under “fitted relative affinity”, `CATTTTTTTTTCTGATACTGTGCTAG` is recorded as 1.71 z-score.
`TAGGATTCGGTATCGGTTAGTGCTAG` — result for “fitted relative affinity”: 4.53 z-score.
Under “fitted relative affinity”, `CACATTGCTGCCCTCAGACTGTGCTA` is recorded as 0.03 z-score.
`TAGATCTAAGTATCGATTAGTGCTAG` — result for “fitted relative affinity”: 0.549 z-score.
Under “fitted relative affinity”, `CATCTTTCCACTTTCTACTGTGCTAG` is recorded as 2.88 z-score.
`CAAATGCCCTTTTGGTACTGTGCTAG` — result for “fitted relative affinity”: 1.41 z-score.
`CATGTCTGTGTTTCCTACTGTGCTAG`: “fitted relative affinity” 1.64 z-score.
`GAGGACTGCTTATCCTTTAGTGCTAG` — result for “fitted relative affinity”: -0.237 z-score.

Single results of other studies — read-out: enzyme activity; mode: inhibitor
Target: Replicase polyprotein 1ab, main protease (rep, Severe acute respiratory syndrome coronavirus 2, UniProt P0DTD1)
`CC[n+]1c(-c2ccccc2)c2cc(N)ccc2c2ccc(N)cc21` has an inhibition of 60.2% (20 µM, hit confirmation, no DTT).
`Nc1ccc2cc3ccc(N)cc3nc2c1` has an IC50 of 800 nM (without DTT).
`O=C1NC(=O)C(c2ccccc2)N1` (stereo not shown) gave an inhibition of 69.8% (20 µM, hit confirmation, no DTT).

Some of these lines once more (block 2):
`AATTGGAA` has an E-score of 0.144.
`CACCGCAC` gave an E-score of 0.11.
For `AATTCTCG`, the E-score was -0.00722.
